Experimental data gathered from unrelated publications.
Each line is one published result; not all experiments were run side by side. ± marks the error that the study gave.

SMILES | cell line | test | test system | setting | scale | measurement | value
N=C(N)NCCC[C@@H](NC(=O)[C@H](N)Cc1c[nH]c2ccccc12)C(=O)N[C@H](CCCCN)C(=O)N[C@H](Cc1c[nH]c2ccccc12)C(=O)N[C@H](CCCNC(=N)N)C(=O)N[C@H](CCCCN)C(=O)N[C@H](Cc1c[nH]c2ccccc12)C(=O)N[C@H](CCCNC(=N)N)C(=O)N[C@H](CCCCN)C(=O)N[C@H](Cc1c[nH]c2ccccc12)C(=O)N[C@H](CCCNC(=N)N)C(=O)N[C@H](CCCCN)C(N)=O | HK-2 | cytotoxicity, MTT | – | 24 h | – | IC50 | 128 µM
CCn1c(SCc2ccc(C#N)cc2)nc2cc3ccccc3cc2c1=O | BGM | morphology and trypan blue | – | 72 h | – | maximum non-toxic concentration | 50 µg/mL
C[C@@H](c1ccccc1)N(CC(N)=O)C(=O)CN(C(=O)CN(CCCCN)C(=O)CN(C(=O)CN(C(=O)CN(CCCCN)C(=O)CN(C(=O)CN(C(=O)CN(CCCCN)C(=O)CN(C(=O)CN(C(=O)CNCCCCN)[C@@H](C)c1ccccc1)[C@@H](C)c1ccccc1)[C@@H](C)c1ccccc1)[C@@H](C)c1ccccc1)[C@@H](C)c1ccccc1)[C@@H](C)c1ccccc1)[C@@H](C)c1ccccc1 | primary gingival epithelial cells, 3D | MTT | – | up to 256 µg/mL, 3 h | – | cytotoxicity | not toxic
O=C(CCC(=O)OCCNC(=O)[C@H](Cc1ccccc1)NC(=O)[C@H](Cc1ccccc1)NC(=O)Cc1ccc2ccccc2c1)NCCS(=O)(=O)O | SK-OV-3 | – | – | 50 µM, 4 h | baseline: hydrogelator over precursor | ratio | 6.95
Cc1cc(C)cc([C@@H]2C[C@H]2C(=O)N[C@@H](C(=O)NCc2ccccc2)c2ccc(C)c(C)c2)c1 | BHK-21 | cell growth or viability, MTT | – | 24 h | – | CC50 | > 100 µM
C1=[N+]2CCCC[N+]3=Cc4ccc5[n]4[Au-]23[n]2c1ccc2-c1nc2ccccc2nc1-5.F[P-](F)(F)(F)(F)F | prostate cancer cell lines | – | – | NCI60 panel mean | – | CC50 | > 100 µM
CC1(C)CC([n+]2cc([NH-])on2)CC(C)(C)N1O | human trabecular meshwork cells | cytotoxicity, CellTiter | serum-free medium | 24 h | – | EC50 | 53.5 µM
CCn1c(SCc2ccc(Cl)cc2)nc2cc3ccccc3cc2c1=O | BGM | morphology and trypan blue | – | 72 h | – | maximum non-toxic concentration | 60 µg/mL
CC[C@H](C)[C@H](NC(=O)[C@H](CCC(=O)O)NC(=O)CNC(=O)[C@@H](NC(=O)[C@H](CC(C)C)NC(=O)[C@H](CC(C)C)NC(=O)[C@H](CC(C)C)NC(=O)[C@H](CC(C)C)NC(=O)[C@H](CS)NC(=O)[C@H](CO)NC(=O)[C@H](Cc1ccccc1)NC(=O)CNC(=O)[C@H](CCCNC(=N)N)NC(=O)[C@@H]1CCCN1C(=O)[C@H](C)NC(=O)[C@H](CCSC)NC(=O)CNC(=O)CNC(=O)[C@H](Cc1ccccc1)NC(=O)[C@H](CCCCN)NC(=O)[C@H](Cc1c(C)cc(O)cc1C)NC(=O)[C@H](N)CCCNC(=N)N)[C@@H](C)O)C(=O)N[C@@H](CC(=O)O)C(=O)N[C@@H](CC(C)C)C(=O)N1CCC[C@H]1C(=O)N[C@H](C(=O)N[C@@H](CCCCN)C(=O)N[C@@H](CCCNC(=N)N)C(=O)N[C@@H](CCCNC(=N)N)C(=O)N[C@@H](C)C(N)=O)C(C)C | bEnd.3 | – | – | 10 µM, 4 h, FITC-labelled, added: FBS 10% | baseline: SS-31 | cellular uptake | 4.6 fold
CC1C(=NOCc2cn(-c3ccccc3)nn2)C(C)C(c2ccc(Br)cc2)OC1c1ccc(Br)cc1 (stereo not drawn) | human PBMC | cytotoxicity, MTT | – | – | – | IC50 | 317 µg/mL
Cc1c(C)c(C)[c-](C)c1C.Fc1c[c-]c(-c2ccccn2)cc1.[Cl-].[Ir+3] | A2780 | ICP-MS, measured: iridium in nuclear fraction | – | IC50 | – | iridium share in fraction | 10.4%
CC(C)C[C@H](NC(=O)CCNc1ccc([N+](=O)[O-])c2nonc12)C(=O)N[C@@H](CC(C)C)C(=O)N[C@@H](CC(C)C)C(=O)N[C@@H](CC(C)C)C(=O)N[C@@H](Cc1ccc(OP(=O)(O)O)cc1)C(=O)O | SJSA-1 | – | – | 200 µM, 4 h | – | nuclear concentration | 950 ± 10 µM
O=c1c(NCc2ccc(Br)cc2)c(NC2CCN(Cc3ccccc3)CC2)c1=O | SH-SY5Y | MTT | – | 6.25 µM, 24 h | – | viability | 91.95 ± 0.52%
CN1CCN(C(=O)N[C@@H](Cc2ccccc2)C(=O)N[C@H](/C=C/S(=O)(=O)c2ccccc2)CCc2ccccc2)CC1 | Vero E6, HeLa-ACE2, Caco-2, A549-ACE2, Calu-3 | – | – | 10 to 100 µM | – | cytotoxicity | not toxic
O=C1c2ccccc2C(=O)N1CCCSc1nc2cc3ccccc3cc2c(=O)n1Cc1ccccc1 | BGM | morphology and trypan blue | – | 72 h | – | maximum non-toxic concentration | 40 µg/mL
COc1ccc(CNc2c(NC3CCN(Cc4ccccc4)CC3)c(=O)c2=O)cc1 | SH-SY5Y | MTT | – | 6.25 µM, 24 h | – | viability | 101 ± 1.79%
CC=C(C)C(=O)OC1C(O)C2OC(COC(=O)CCCCCCCCCC(CCCCC)OC3OC(C)C(OC(C)=O)C(O)C3O2)C1OC(=O)C=Cc1ccccc1 (stereo not drawn) | Jurkat | cytotoxicity | – | – | – | IC50 | 0.0097 µM
O=c1c(NCc2ccc(O)cc2)c(NC2CCN(Cc3ccccc3)CC2)c1=O | SH-SY5Y | MTT | – | 12.5 µM, 24 h | – | viability | 97.8 ± 2.14%
CC(C)C[C@H](NC(=O)[C@H](CCCCN)NC(=O)[C@H](CC(C)C)NC(=O)[C@H](CC(C)C)NC(=O)[C@H](CCCCN)NC(=O)[C@H](CCCCN)NC(=O)[C@H](CC(C)C)NC(=O)[C@H](CC(C)C)NC(=O)[C@H](CCCCN)NC(=O)[C@H](CC(C)C)NC(=O)[C@H](CC(C)C)NC(=O)[C@H](CCCCN)NC(=O)[C@H](CCCCN)NC(=O)[C@H](CC(C)C)NC(=O)[C@@H](N)CSSC[C@H](N)C(=O)N[C@@H](CC(C)C)C(=O)N[C@@H](CCC(=O)O)C(=O)N[C@@H](CCC(=O)O)C(=O)N[C@@H](CC(C)C)C(=O)N[C@@H](CC(C)C)C(=O)N[C@@H](Cc1c[nH]cn1)C(=O)N[C@@H](Cc1c[nH]cn1)C(=O)N[C@@H](CC(C)C)C(=O)N[C@@H](CCC(=O)O)C(=O)N[C@@H](CCC(=O)O)C(=O)N[C@@H](CC(C)C)C(=O)N[C@@H](CC(C)C)C(=O)N[C@@H](Cc1c[nH]cn1)C(=O)N[C@@H](Cc1c[nH]cn1)C(N)=O)C(N)=O | mouse erythrocytes | hemolysis | – | 1 h, 37 °C | – | HC10 | ~172 µM
O=C(COc1ccccc1P(=O)(O)O)NCC(F)(F)c1ccccc1 | INS1 | – | – | concentration not given, low glucose | – | cytotoxicity | not toxic
Cc1ccc(CNc2c(NC3CCN(Cc4ccccc4)CC3)c(=O)c2=O)cc1 | SH-SY5Y | MTT | – | 12.5 µM, 24 h | – | viability | 95.7 ± 1.64%
Cc1cc([N+](=O)[O-])nc2c1NC(=O)c1cccnc1N2C1CC1 | primary human hepatocytes | CYP3A4 activity, inducer | – | 100 µM, 72 h, added: midazolam 1'-hydroxylation | baseline: untreated | fold change | no effect
Nc1ccc(Nc2c(NC3CCN(Cc4ccccc4)CC3)c(=O)c2=O)cc1 | SH-SY5Y | MTT | – | 6.25 µM, 24 h | – | viability | 104.1 ± 0.52%
CC(=O)N(O)CCCP(=O)(O)O | L5178Y TK+/- clone 3.7.2C | mouse lymphoma TK | – | 2200 µg/mL, 4 h, with S9 | baseline: negative control | mutant frequency | 112%
